{"data": "Experimental data collected from several papers", "note": "Each numbered part is a random draw from the data of one study; scales do not carry over between parts. Positions count from the first letter of the parent shown.", "sequence of UniProt Q712K3 (whole entry, looked up)": "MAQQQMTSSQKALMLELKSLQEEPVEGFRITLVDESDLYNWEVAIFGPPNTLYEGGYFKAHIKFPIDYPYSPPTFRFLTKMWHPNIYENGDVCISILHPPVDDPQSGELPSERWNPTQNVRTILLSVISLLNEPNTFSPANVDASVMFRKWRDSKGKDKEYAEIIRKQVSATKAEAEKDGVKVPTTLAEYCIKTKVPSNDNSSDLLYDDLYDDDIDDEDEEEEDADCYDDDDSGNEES", "sequence of UniProt Q9C0C9 (whole entry, looked up)": "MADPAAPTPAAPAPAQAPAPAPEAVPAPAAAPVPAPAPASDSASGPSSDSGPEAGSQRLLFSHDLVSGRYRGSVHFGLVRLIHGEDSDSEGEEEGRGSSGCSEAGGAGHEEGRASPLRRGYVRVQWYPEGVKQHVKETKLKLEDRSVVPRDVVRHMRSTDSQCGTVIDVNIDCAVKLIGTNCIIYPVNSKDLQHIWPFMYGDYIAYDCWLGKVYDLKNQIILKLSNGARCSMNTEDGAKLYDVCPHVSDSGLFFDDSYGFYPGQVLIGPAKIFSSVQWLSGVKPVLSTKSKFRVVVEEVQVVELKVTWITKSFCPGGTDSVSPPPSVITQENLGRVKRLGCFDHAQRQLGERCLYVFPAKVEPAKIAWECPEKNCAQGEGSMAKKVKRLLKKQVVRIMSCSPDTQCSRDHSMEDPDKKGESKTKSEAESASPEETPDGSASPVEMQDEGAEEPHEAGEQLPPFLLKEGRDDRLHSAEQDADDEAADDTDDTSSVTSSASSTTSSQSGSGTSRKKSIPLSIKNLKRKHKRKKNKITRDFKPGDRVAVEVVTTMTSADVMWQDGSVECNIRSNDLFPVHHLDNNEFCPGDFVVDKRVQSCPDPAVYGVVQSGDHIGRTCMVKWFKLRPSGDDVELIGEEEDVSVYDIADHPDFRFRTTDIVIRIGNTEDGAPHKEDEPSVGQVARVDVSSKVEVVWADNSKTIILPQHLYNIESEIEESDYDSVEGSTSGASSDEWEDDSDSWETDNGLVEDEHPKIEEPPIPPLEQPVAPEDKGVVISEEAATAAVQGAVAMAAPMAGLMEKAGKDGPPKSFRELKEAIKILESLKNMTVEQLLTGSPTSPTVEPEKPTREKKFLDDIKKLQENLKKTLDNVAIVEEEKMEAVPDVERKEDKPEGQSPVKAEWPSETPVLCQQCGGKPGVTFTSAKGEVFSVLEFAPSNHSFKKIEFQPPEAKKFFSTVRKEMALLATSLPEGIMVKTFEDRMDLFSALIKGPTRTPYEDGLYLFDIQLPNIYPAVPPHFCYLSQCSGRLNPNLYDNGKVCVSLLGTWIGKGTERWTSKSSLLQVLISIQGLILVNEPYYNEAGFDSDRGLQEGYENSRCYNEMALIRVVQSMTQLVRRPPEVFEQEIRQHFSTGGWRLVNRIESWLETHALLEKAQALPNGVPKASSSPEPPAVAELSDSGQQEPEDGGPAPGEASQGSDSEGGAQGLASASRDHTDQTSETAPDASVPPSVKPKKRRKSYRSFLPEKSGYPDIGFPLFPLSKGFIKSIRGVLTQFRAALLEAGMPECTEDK", "sequence of UniProt Q969T4 (whole entry, looked up)": "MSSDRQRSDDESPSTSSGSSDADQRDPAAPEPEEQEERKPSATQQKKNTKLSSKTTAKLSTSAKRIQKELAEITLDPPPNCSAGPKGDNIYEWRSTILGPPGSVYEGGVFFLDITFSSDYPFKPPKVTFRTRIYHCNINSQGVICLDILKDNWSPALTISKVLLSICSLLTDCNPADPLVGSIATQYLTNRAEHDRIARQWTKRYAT", "sequence of UniProt P63146 (whole entry, looked up)": "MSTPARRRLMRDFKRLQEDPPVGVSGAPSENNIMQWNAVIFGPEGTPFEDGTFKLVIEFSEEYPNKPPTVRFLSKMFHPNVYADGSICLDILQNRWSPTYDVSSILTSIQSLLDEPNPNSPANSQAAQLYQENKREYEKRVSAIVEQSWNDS", "sequence of UniProt P68036 (whole entry, looked up)": "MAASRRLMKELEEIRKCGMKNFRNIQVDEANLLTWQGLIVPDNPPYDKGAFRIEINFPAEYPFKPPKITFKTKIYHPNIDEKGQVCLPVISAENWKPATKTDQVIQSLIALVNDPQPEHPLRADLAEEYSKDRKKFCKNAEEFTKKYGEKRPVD", "sequence of UniProt O00762 (whole entry, looked up)": "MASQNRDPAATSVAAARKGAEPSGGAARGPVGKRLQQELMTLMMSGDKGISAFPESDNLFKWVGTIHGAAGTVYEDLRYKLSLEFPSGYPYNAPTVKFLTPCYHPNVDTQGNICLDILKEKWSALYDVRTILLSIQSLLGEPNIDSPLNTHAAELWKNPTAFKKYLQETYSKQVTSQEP", "sequence of UniProt P51668 (whole entry, looked up)": "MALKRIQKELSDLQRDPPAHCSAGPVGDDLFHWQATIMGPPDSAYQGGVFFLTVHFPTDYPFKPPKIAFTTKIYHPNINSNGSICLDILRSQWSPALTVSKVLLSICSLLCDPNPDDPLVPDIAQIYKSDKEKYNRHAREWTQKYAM", "sequence of UniProt P62253 (whole entry, looked up)": "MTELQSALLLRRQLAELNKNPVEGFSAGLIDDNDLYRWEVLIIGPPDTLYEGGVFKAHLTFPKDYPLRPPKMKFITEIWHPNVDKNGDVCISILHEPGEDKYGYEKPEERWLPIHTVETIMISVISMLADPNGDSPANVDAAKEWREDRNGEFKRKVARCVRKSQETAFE"}
{"data": "Series 1", "Molecule": "EDEVSDNSAECVVCLSDVRDTLILPCRHLCLCNTCADTLRYQANNCPICRLPFRALLQIR (RNF157 RING domain (UniProt Q96PX1))", "method": "yeast two-hybrid", "medium": "yeast", "notes": "mostly zero background", "reference": "not given", "direction": "higher = stronger interaction"}
{"target": "UBE2D1 UBC core domain (UniProt P51668)", "lacZ reporter activity": 5330}
{"target": "UBE2B UBC core domain (UniProt P63146)", "lacZ reporter activity": 0}
{"target": "UBE2E3 UBC core domain (UniProt Q969T4)", "lacZ reporter activity": 0}
{"target": "UBE2L3 UBC core domain (UniProt P68036)", "lacZ reporter activity": 0}
{"target": "UBE2R2 UBC core domain (UniProt Q712K3)", "lacZ reporter activity": 0}
{"target": "UBE2G1 UBC core domain (UniProt P62253)", "lacZ reporter activity": 0}
{"target": "UBE2C UBC core domain (UniProt O00762)", "lacZ reporter activity": 0}
{"target": "UBE2O UBC core domain (UniProt Q9C0C9)", "lacZ reporter activity": 0}
{"data": "Series 2", "target": "CCNA2, cyclin fold, Cln2 fusion (human)", "method": "yeast growth competition, sequencing", "medium": "yeast", "notes": "weak parent motif", "reference": "not given", "direction": "higher = stronger binding", "starting sequence": "FZR1 docking peptide (human); QDYERRLLRQIVI"}
{"Variant": "QDYARRLLRQIVI [E4A]", "normalised enrichment score": 1.94}
{"Variant": "QDYERRLARQIVI [L8A]", "normalised enrichment score": 0.407}
{"Variant": "QDYERRLLRQAVI [I11A]", "normalised enrichment score": 1.32}
{"Variant": "QDYEARLLRQIVI [R5A]", "normalised enrichment score": -0.242}
{"Variant": "QDYERRLLRAIVI [Q10A]", "normalised enrichment score": 0.169}
{"Variant": "QDYERRLLRQIAI [V12A]", "normalised enrichment score": 1.19}
{"Variant": "QDYERRLLRQIVA [I13A]", "normalised enrichment score": 0.644}
{"Variant": "QDYEKRLFRQIVI [R5K L8F]", "normalised enrichment score": 0.67}
{"Variant": "QDYEARALRQIVI [R5A L7A]", "normalised enrichment score": 0.523}
{"Variant": "QDYEKRLLRQIVI [R5K]", "normalised enrichment score": 0.228}
{"data": "Series 3", "target": "Interferon regulatory factor 3, full length, phosphomimetic (IRF3, Homo sapiens, UniProt Q14653, residues 1-427, S386D/S396D/S398D/S402D/T404D/S405D)", "method": "protein-binding microarray", "form": "double-stranded DNA, one strand shown", "medium": "in vitro", "tested at": "2540 nM top", "notes": "60-bp whole probe", "with": "salmon DNA 0.4 mg/ml", "reference": "random background probes", "direction": "higher = stronger binding", "constant ends, left off below": "GCCTAGCAC … GTCTTGATTCGCTTGACGCTGCTG", "Residues (chain)": "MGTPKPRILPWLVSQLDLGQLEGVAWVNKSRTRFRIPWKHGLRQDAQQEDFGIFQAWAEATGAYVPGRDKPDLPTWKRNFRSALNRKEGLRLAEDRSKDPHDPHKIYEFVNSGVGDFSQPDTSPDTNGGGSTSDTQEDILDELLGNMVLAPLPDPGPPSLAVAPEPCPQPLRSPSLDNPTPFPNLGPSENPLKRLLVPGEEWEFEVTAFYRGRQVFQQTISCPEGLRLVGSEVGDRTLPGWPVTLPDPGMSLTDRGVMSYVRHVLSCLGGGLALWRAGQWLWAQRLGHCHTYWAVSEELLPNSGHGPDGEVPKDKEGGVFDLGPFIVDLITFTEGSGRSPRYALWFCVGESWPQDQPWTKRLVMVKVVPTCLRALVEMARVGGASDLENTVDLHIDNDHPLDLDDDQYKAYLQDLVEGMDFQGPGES"}
{"Oligonucleotide": "TCAATTCTCTGCTTCTGACTGTGCTAG", "fitted relative affinity": "0.734 z-score"}
{"Oligonucleotide": "TCACATCTCTGCTCCTTACTGTGCTAG", "fitted relative affinity": "1.31 z-score"}
{"Oligonucleotide": "TTAGGTCTCGCTTTCGGTTAGTGCTAG", "fitted relative affinity": "2.69 z-score"}
{"Oligonucleotide": "GACGGTATCGGTTTCGGGCCGTGCTAG", "fitted relative affinity": "6.57 z-score"}
{"Oligonucleotide": "TCATTTTTGCTTTCCTTACTGTGCTAG", "fitted relative affinity": "4.81 z-score"}
{"Oligonucleotide": "GTCGATATCGGGTTTCGAGACGTGCTA", "fitted relative affinity": "1.98 z-score"}
{"Oligonucleotide": "TTTGGACTGCTTTTCCTTTAGTGCTAG", "fitted relative affinity": "0.969 z-score"}
{"Oligonucleotide": "CACGGTTTCGACACTGGGGACGTGCTA", "fitted relative affinity": "2.57 z-score"}
{"Oligonucleotide": "GACGGTATCGGGTTTCGGGTCGTGCTA", "fitted relative affinity": "3.19 z-score"}
{"Oligonucleotide": "TTAGATATCCTTTTCCTTTAGTGCTAG", "fitted relative affinity": "5.6 z-score"}
{"Oligonucleotide": "CACTAGTTTCTTTTCTTTTCGTGCTAG", "fitted relative affinity": "5.97 z-score"}
{"Oligonucleotide": "TTAGAACTGGGGACTCGATTAGTGCTA", "fitted relative affinity": "-0.774 z-score"}
{"Oligonucleotide": "GACGGTATCGTTATCGGGACGTGCTAG", "fitted relative affinity": "3.3 z-score"}
{"Oligonucleotide": "GACGGTTTCCTTATCGTGACGTGCTAG", "fitted relative affinity": "8.18 z-score"}
{"Oligonucleotide": "TTAGGACTGATTTTCCTTTAGTGCTAG", "fitted relative affinity": "1.62 z-score"}
{"Oligonucleotide": "TTAGGACTGAGGTATCGGTTAGTGCTA", "fitted relative affinity": "0.602 z-score"}
{"Oligonucleotide": "TCAGTTTTGAGCTCTGTCACTGTGCTA", "fitted relative affinity": "0.932 z-score"}
{"Oligonucleotide": "TCAGGTAGCCTTATCCCTAAGTGCTAG", "fitted relative affinity": "1.35 z-score"}
{"Oligonucleotide": "TAAATTTTCACGGTGGGTTCGTGCTAG", "fitted relative affinity": "-0.289 z-score"}
{"data": "Series 4", "target": "ABI1, truncated, D143A, DHFR fusion (Arabidopsis thaliana)", "method": "DHFR PCA, deep sequencing", "medium": "yeast", "notes": "methotrexate growth selection, single substitutions", "with": "(+)-ABA 58 µM", "reference": "wild-type fitted maximum", "direction": "higher = stronger binding", "starting sequence": "PYL1, truncated, DHFR fusion (Arabidopsis thaliana); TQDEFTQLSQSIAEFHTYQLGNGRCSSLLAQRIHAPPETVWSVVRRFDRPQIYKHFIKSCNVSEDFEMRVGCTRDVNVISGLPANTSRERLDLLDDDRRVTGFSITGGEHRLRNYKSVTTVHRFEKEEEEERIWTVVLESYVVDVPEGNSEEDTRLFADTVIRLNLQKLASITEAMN"}
{"Variant": "H55F", "relative binding score": "76.5%"}
{"Variant": "R90Q", "relative binding score": "82.2%"}
{"Variant": "E131Y", "relative binding score": "87.3%"}
{"Variant": "T119V", "relative binding score": "64.9%"}
{"Variant": "R155G", "relative binding score": "23.5%"}
{"Variant": "S104N", "relative binding score": "12%"}
{"Variant": "M176L", "relative binding score": "82.2%"}
{"Variant": "E109K", "relative binding score": "83.1%"}
{"Variant": "R46T", "relative binding score": "65.9%"}
{"Variant": "S104T", "relative binding score": "92.1%"}
{"Variant": "R45D", "relative binding score": "-12.5%"}
{"Variant": "D92Y", "relative binding score": "31.1%"}
{"Variant": "V100W", "relative binding score": "5.05%"}
{"Variant": "R74I", "relative binding score": "-0.916%"}
{"Variant": "E89V", "relative binding score": "2.77%"}
{"Variant": "R113I", "relative binding score": "77.8%"}
{"Variant": "V161G", "relative binding score": "-3.78%"}
{"Variant": "P146C", "relative binding score": "48.3%"}
{"Variant": "D144S", "relative binding score": "57.7%"}
{"Variant": "I79S", "relative binding score": "78.3%"}
{"Variant": "Y141P", "relative binding score": "2.69%"}
{"Variant": "N165A", "relative binding score": "8.41%"}
{"Variant": "F5P", "relative binding score": "74.1%"}
{"Variant": "R113L", "relative binding score": "87.2%"}
{"Variant": "F66E", "relative binding score": "79.3%"}
{"data": "Series 5", "target": "Hepatocyte nuclear factor 3-alpha (Foxa1, Mus musculus, UniProt P35582, residues 1-468, full length assumed)", "method": "EMSA with sequencing", "form": "double-stranded DNA, one strand shown", "medium": "in vitro", "tested at": "10 and 20 nM", "notes": "whole designed probe, mean of two concentrations, ends assumed", "reference": "negative control set to 0", "direction": "higher = stronger binding", "sequence of UniProt P35582 (whole entry, looked up)": "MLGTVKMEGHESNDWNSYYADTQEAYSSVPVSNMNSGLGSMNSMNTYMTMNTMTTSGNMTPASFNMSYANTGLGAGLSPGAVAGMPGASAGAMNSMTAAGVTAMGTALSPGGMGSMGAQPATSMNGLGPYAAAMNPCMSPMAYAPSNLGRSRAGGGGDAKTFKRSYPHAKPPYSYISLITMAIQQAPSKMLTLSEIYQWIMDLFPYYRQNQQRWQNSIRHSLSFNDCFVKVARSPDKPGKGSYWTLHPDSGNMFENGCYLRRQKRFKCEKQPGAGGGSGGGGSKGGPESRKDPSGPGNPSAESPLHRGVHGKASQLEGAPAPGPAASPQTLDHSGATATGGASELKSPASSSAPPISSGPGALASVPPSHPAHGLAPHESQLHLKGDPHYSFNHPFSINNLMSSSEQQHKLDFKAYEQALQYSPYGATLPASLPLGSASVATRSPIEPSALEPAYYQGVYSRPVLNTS"}
{"Oligonucleotide": "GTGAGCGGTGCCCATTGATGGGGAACAGTGGCAGGTTCCCTGCTGGGATTTAGCTGGAGAACAAAGTAAGTTTGCATAATGAGTGTGAGAGCTGTAAAGAATAAACTGTGAAGTGCTGTGCAATTTTTAGCTCTCCTGTCTCTTCCAGCTCTGGCCTTCCCTTAACAGTGTGGCTGAAAGCCCTTTGTCTGAGGACAAGGACAGATAAGCTAGTTAGAGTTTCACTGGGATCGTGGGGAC", "normalised bound fraction": "0.0255 ratio"}
{"Oligonucleotide": "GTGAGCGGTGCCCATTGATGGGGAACAAGACAAATAAGAAAGATATTTCCTCCCCTACATTATCTGGATTTCTCCATGAAACACCCATTATGGCATAGACAAATTGGTTACTATCTTAAGTAAACATTGGTAGGAAAACTTTGAAAAGGCAACTGAGCTTACTTTTGGGTCATGTGTCACCTGTCAAAAATATAACTCTGGAAAAACTGTAAAGTTGGGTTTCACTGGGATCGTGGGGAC", "normalised bound fraction": "0.5 ratio"}
{"Oligonucleotide": "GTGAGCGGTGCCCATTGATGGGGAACCTAGCTCCAGTCTTAGCATGGCAATTTCTTCCCGCAACGTACTATTTTCATGCAAGACGTCTTTTTCTTTCTTACAACTAAGAGAAAGCTAAGTAATCTAAGAGAACTTTTAGTTAGCACTCAATAGATTGACATATCATGATTTCTTCTGAAATTCAAAAATAACATGTATTTGTATAATGAAAGAATCCCCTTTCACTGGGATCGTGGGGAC", "normalised bound fraction": "0.106 ratio"}
{"Oligonucleotide": "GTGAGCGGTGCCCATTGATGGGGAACGGCAAGGTCTCAGGATGTCAAAGGCTCAAGAAATACAAAAATTAGATATGATGAATACTCTTACCAGCCTAACAGGCTTATTCTCTCCTTTAAGCAATCTATATGGGAATCAAATTATTAAAAGGCTACACAGTGGGTGATTAATCAGAATAAGGGTAGTTTTATTTGAAAATTTATAAGGTTCAACTTACTATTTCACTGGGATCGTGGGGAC", "normalised bound fraction": "0.499 ratio"}
{"Oligonucleotide": "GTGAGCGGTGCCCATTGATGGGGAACACATTTGGGTCATTCCACCCTTTGACTAATGTGATCAGTGCTGCTCTGAACATTCGTGTATGAGTATTTGAGGATCGTTTTCACTTCTCTTGGGTAATCTTCTAGGAGTGAAATTGCTGAGTCATAGGGCAGTTTTATGTGTAACTACTTTTTGAGGAGTGCAGTGGCATAATCTTGCCTCACTGAAACCTCCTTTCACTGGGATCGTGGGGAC", "normalised bound fraction": "-0.048 ratio"}
{"note": "For quick reference, copied from above (series 4):"}
{"Variant": "S104N", "relative binding score": "12%"}
{"Variant": "M176L", "relative binding score": "82.2%"}
{"Variant": "E109K", "relative binding score": "83.1%"}
{"Variant": "R46T", "relative binding score": "65.9%"}
{"Variant": "S104T", "relative binding score": "92.1%"}
{"Variant": "R45D", "relative binding score": "-12.5%"}
{"Variant": "D92Y", "relative binding score": "31.1%"}
{"Variant": "V100W", "relative binding score": "5.05%"}
